Measurements gathered from unrelated publications.
Numbered parts are unrelated; each lists some results of a single study.

Study 1
Target: Histone acetyltransferase KAT6A, winged helix 2, GST fusion (KAT6A, Homo sapiens, UniProt Q92794, residues 85-181)
Technique: protein binding microarray
Form: double-stranded DNA, one strand shown
Matrix: in vitro
Tested at: not given
Notes: 8-mer, flanks averaged, mean of 2 arrays, mostly near background
Relative to: not given
Direction: higher = stronger binding
Quantity: E-score
Target sequence (chain): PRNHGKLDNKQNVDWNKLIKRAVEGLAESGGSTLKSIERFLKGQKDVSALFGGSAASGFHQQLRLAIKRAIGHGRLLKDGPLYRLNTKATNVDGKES
AAGCTCTA: -0.0322
ACCCGAAC: 0.101
GGAACCGA: -0.00571
ATGTTGAG: -0.0613
CTGAAAAG: -0.107
GACTCGAA: -0.118
AACCACAT: -0.124
AGAGAAAG: 0.0402
TGCGAACA: 0.0407
CTCTACCA: -0.0911
AGCAGGAC: 0.0962
ACCGAAGC: -0.0379
GTGCGACA: 0.0904
GGCAGGAC: 0.00553
ATCAGTTA: -0.0217
AGGCTGTA: -0.119

Study 2
Target: Centromere-binding protein 1, full length, His-tagged (CBF1, Saccharomyces cerevisiae, UniProt P17106, residues 1-351)
Sequence of UniProt P17106 (whole entry, looked up): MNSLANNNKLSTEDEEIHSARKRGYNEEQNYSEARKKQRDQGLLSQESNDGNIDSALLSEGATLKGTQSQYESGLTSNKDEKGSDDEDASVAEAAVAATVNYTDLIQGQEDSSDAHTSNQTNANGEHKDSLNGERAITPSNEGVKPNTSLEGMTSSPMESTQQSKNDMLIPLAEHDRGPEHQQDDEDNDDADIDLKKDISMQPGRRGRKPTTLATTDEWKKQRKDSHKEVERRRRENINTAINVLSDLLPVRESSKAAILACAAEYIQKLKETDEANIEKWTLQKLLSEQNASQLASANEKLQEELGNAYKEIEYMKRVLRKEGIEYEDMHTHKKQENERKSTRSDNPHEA
Technique: competition protein-binding microarray
Form: double-stranded DNA, one strand shown
Matrix: in vitro
Tested at: 2 µM
Notes: whole 60-bp probe, lowest competitor level
Together with: Pho4 competitor, 0.05 µM
Direction: higher = stronger binding
Quantity: fluorescence intensity
All sequences stand within: … GTCTTGATTCGCTTGACGCTGCTG
AGTATAGGGCATTTAAAGGTGTGCCAGCAGCGGGTT: 67.9 a.u.
CTAACGAAGGTTTTTCACGTGGTATACAAGCCAAGT: 1160 a.u.
CCGGTAAAAGCCGGGAACGTGCGGAACAATTTTTTT: 91.8 a.u.
CTTGCAGGTTAGGTTTTCGTGCTAAGATGAGCAGAT: 63.9 a.u.
TTTAATCGCTCTACCCACGTTTTTTTATCCAGTGCT: 130 a.u.
GTCTTGTCTCATTGAGATGTGGGTGTCCCCACTTCA: 78.7 a.u.
GTCTTGTCTCATTTTCACGTGCACTTCCCCACTTCA: 864 a.u.
GGTACGGCAACTCAATCCGTGCCAGCTTCGGAAGCC: 60.5 a.u.
GGCCAGATCAATCAGCTCGTGTGGATAGGTTAGGTT: 63.7 a.u.
ACAAAATTCCCCCATCACGTGAAGCAGGAGGCGCAA: 3670 a.u.
CAATCTTGGCGTTCACACGTGGGTATAAAAAGGCAA: 999 a.u.
TAGGTGCCGTACTATCGCGTGCCAGCACCATGACAG: 101 a.u.
GTCTTGTCTCATTGTTAAGTGGGTGTCCCCACTTCA: 62.4 a.u.
GTACGAAGCAGGCTGCACATGTGTGGGTTTACCTTC: 113 a.u.
GGTATGTTCTGCAACAGCGTGCCAGTCTCTTGGCCC: 81.4 a.u.
TAAGAAGAAAGATCGAACGTGATTGTAATGCTCCAA: 173 a.u.
CTGGCTCATATGCCACACATGTCAGTAGGTTCATAG: 99.9 a.u.
CGTCCTAGCGATTGATTAGTGGGTGCCATGAGGAAG: 73.3 a.u.
TTTTCTTTTCTGTTAAACGTGTGAATTGTCGTTCCT: 84.1 a.u.

Study 3
Target: Prothrombin, mature alpha-thrombin (F2, Homo sapiens, UniProt P00734)
Technique: aptamer microarray, sandwich
Form: DNA with 2'F-ANA
Matrix: in vitro
Tested at: 200 nM
Notes: whole 15-mer aptamer, many near background
Together with: Cy3 exosite-II aptamer, 400 nM
Direction: higher = stronger binding
Quantity: mean fluorescence intensity
Strand: GGTTGGTGTGGTTGG
2'F-ANA at 1 2 3 5 6 7 8 10 13 14: 51.7 a.u.
2'F-ANA at 1 2 8 9 11 14 15: 56.8 a.u.
2'F-ANA at 1 2 5 6 7 8 11 14 15: 47.8 a.u.
2'F-ANA at 1 2 4 9 11 13 15: 69.8 a.u.
2'F-ANA at 1 2 3 4 7 11 14 15: 65.7 a.u.
2'F-ANA at 1 2 6 7 10 12 14: 47.3 a.u.
2'F-ANA at 1 2 4 13: 83.7 a.u.
2'F-ANA at 8: 735 a.u.
2'F-ANA at 1 4 5 10 11 13: 93.3 a.u.
2'F-ANA at 1 2 3 4 5 6 7 10 12 13 14: 46.6 a.u.
2'F-ANA at 3 4 5 6 8 9 12 14: 98.2 a.u.
2'F-ANA at 1 2 5 6 10 11 12 13 15: 47.1 a.u.
2'F-ANA at 1 2 3 4 7 8 9 12 13 14: 67.2 a.u.
2'F-ANA at 1 5 6 7 8 9 11 12 13: 72.8 a.u.
2'F-ANA at 4 6 7 8 10 12 14: 66.1 a.u.
2'F-ANA at 5 8 9 10 14 15: 45.3 a.u.
2'F-ANA at 1 5 7 9 12 14 15: 49.7 a.u.
2'F-ANA at 4 8 10 11 15: 74.8 a.u.
2'F-ANA at 1 2 5 6 11 13 15: 51.3 a.u.
2'F-ANA at 4 5 8 10 12 14 15: 54.5 a.u.
2'F-ANA at 1 2 4 5 10 11 13 14: 49.6 a.u.
2'F-ANA at 1 4 7 8 10 11 13 14: 45.4 a.u.

Study 4
Target: Ras GTPase-activating protein-binding protein 1, full length (G3BP1, Homo sapiens, UniProt Q13283)
Sequence of UniProt Q13283 (whole entry, looked up): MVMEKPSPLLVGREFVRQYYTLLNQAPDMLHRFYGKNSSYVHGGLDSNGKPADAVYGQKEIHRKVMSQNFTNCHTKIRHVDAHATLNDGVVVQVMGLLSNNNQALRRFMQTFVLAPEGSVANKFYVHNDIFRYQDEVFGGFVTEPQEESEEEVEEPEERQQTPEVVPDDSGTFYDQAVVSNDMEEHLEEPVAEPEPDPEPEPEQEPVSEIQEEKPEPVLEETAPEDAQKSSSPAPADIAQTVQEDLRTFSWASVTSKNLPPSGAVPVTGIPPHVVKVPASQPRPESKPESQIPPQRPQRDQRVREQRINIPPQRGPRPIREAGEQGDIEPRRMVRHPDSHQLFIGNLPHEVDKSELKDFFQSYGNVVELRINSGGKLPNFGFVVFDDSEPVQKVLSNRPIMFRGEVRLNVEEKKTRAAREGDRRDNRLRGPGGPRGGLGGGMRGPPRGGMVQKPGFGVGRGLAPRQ
Technique: RNA Bind-n-Seq
Form: RNA
Matrix: in vitro
Tested at: 200 nM
Notes: whole 134-nt RNA, ends assumed
Together with: 150 mM LiCl
Relative to: input library
Direction: higher = stronger binding
Quantity: log2 enrichment
Each molecule: 7-deaza-guanosine replaces G
All sequences stand within: GGGAGUUCUACAGUCCGACGAUC … UGGAAUUCUCGGGUGUCAAGG
UUGUUUGAAACAGCAACGCUUCGGUCAGGGUAUCUUUUACCAGACACUAAAGCAUAUGGAGAUAGAAUAGAAAGAAUGCUUCGCCUCAGU: -1.94
UGGGAGGUGGAUUUUGUUUAUUUUUUUAGCUCAUUUCCAGGGGUGGGAAUUUUUUUUUAAUAUGUGUCAUGAAUAAAGUUGUUUUUCAAA: 0.0988
AAGUCCUGUGCUACACAUCGUAUGUACCGAAUCGGGUGGGAAAAAGGGAAAAAGGGAAAGUAUUAUGUUACGCCGUUCGGAUCUGCACUU: 0.237
AAGUCCUGUGCUACACAUCGUAUGUACCGAAUCGGUUUUUGGAAAAAGGUUUUUGGAAAGUAUUAUGUUACGCCGUUCGGAUCUGCACUU: -2.46
CCUCAAGUCCUGUGCUACACAUCGUAUGUACCGAAUCGGAAGGGGAAGGAAGGAAAGUAUUAUGUUACGCCGUUCGGAUCUGCACUUCCA: -1.16
CUGUGCUACACAUCGUAUGUACCGAAUCGGGGUUUUUUUGGGUUUUUUUGGUUUUUUUGGGAAAGUAUUAUGUUACGCCGUUCGGAUCUG: 1.1
CAAGUCCUGUGCUACACAUCGUAUGUACCGAAUCGGUUUUUUUGGAAAAAGGAGGAAAGUAUUAUGUUACGCCGUUCGGAUCUGCACUUC: -1.03
AAGUCCUGUGCUACACAUCGUAUGUACCGAAUCGGGUGGGAAAAAAAGGGAAAGGGAAAGUAUUAUGUUACGCCGUUCGGAUCUGCACUU: 0.28

A few entries again (study 1):
GACTCGAA: -0.118
AACCACAT: -0.124
AGAGAAAG: 0.0402
TGCGAACA: 0.0407
CTCTACCA: -0.0911
AGCAGGAC: 0.0962
ACCGAAGC: -0.0379
